Assay results of several laboratories.
Each line is one published result; not all experiments were run side by side. “And” joins repeats or separate records; there may be more than shown. ± gives the spread as reported.

SMILES | test | test system | setting | how to read | endpoint | result
O=C1NC2(CC2)COc2ncc(F)cc2[C@H]2COCCN2c2ccn3ncc1c3n2 |  | Sprague-Dawley rat, female, serum | oral, 2.5 mg/kg/day, 4 weeks daily, end of treatment |  | potassium | 4 ± 0.17 mmol/L
O=S(=O)(c1ccc2c(c1)OCO2)n1cc(CCCCN2CCC(=C(c3ccc(F)c(F)c3)c3ccc(F)c(F)c3)CC2)nn1 | body weight | mouse | 10 50 mg/kg |  | tolerability | not toxic
C#Cc1c(F)ccc2cc(O)cc(-c3ncc4c(N5CC6CCC(C5)N6C(=O)OC(C)OC(=O)CCCCC)nc(OC[C@@]56CCCN5C[C@H](F)C6)nc4c3F)c12 (some centres unmarked) | item: prodrug | mouse whole blood | 1 µM |  | t1/2 | 5.92 min
CCCC[C@H]1C(=O)N(C)[C@@H](CCCC)C(=O)N[C@@H](CCCNC(=O)CN2CCN(CC(=O)O)CCN(CC(=O)O)CCN(CC(=O)O)CC2)C(=O)N[C@H](C(=O)NCC(N)=O)CSCC(=O)N[C@@H](Cc2ccc(O)cc2)C(=O)N(C)[C@@H](C)C(=O)N[C@@H](CC(N)=O)C(=O)N2CCC[C@H]2C(=O)N[C@@H](Cc2c[nH]cn2)C(=O)N[C@@H](CC(C)C)C(=O)N(C)CC(=O)N[C@@H](Cc2c[nH]c3ccccc23)C(=O)N[C@@H](CO)C(=O)N[C@@H](Cc2c[nH]c3ccccc23)C(=O)N1C [gallium-68 labelled] |  | NOD/SCID mice, CHO-hPD-L1 xenograft, stomach | 60 min, PBS pretreatment |  | tissue uptake | 2.33 ± 0.33 %ID/g
CN1Cc2cc(Cl)ccc2-n2c(nnc2C2CCN(c3cccc([18F])n3)CC2)C1 |  | C57BL/6 mouse male, spleen | intravenous, dose not given, 5 min, together with: blocking agent 10 mg/kg |  | tissue uptake | 4.81 ± 1.2 %ID/g
CC(=O)NCCCC[C@@H]1NC(=O)[C@H](Cc2c[nH]c3c(C)cccc23)NC(=O)[C@H]([C@@H](C)O)NC(=O)[C@H](CC(N)=O)NC(=O)[C@@H](NC(C)=O)C(C)(C)SSC(C)(C)[C@@H](C(=O)N[C@@H](Cc2ccc(OCCN)cc2)C(=O)N[C@@H](Cc2ccc3ccccc3c2)C(=O)NC2(C(=O)N[C@@H](CCC(=O)O)C(=O)N[C@@H](CC(N)=O)C(=O)N[C@@H](Cc3cccnc3)C(=O)N(C)CC(N)=O)CCOCC2)NC1=O | metabolic profiling | Sprague Dawley rat, feces | oral, 300 mg/kg, 0 to 24 h |  | share of drug-related material | 96.3%
CCCCC[C@H]1C(=O)N[C@H](C)C(=O)N(C)[C@@H](CCCCC)C(=O)N[C@H](C)C(=O)N(C)[C@@H](CCCCC)C(=O)N(C)[C@H](C)C(=O)N(C)[C@@H](CCCCC)C(=O)N(C)[C@H](C)C(=O)N1C | PAMPA |  | 500 µM, pH 7.4 |  | log Papp | 4.57 ×10⁻⁶ cm/s
CSCC[C@H](N)C(=O)N[C@@H](C)C(=O)N[C@@H](CCCNC(=N)N)C(=O)N[C@@H](CCCNC(=N)N)C(=O)N[C@@H](CC(=O)O)C(=O)N[C@@H](CCCCN)C(=O)N[C@H](C(=O)N[C@@H](CC(=O)O)C(=O)N[C@@H](Cc1ccccc1)C(=O)N[C@@H](C)C(=O)N[C@@H](CCCNC(=N)N)C(=O)N[C@@H](CCCNC(=N)N)C(=O)N[C@@H](CCCNC(=N)N)C(=O)N[C@@H](CCCNC(=N)N)C(=O)NCCCCCC(=O)NCCCCC(NC(=O)CCCCCNC(=O)[C@H](CCCNC(=N)N)NC(=O)[C@H](CCCNC(=N)N)NC(=O)[C@H](CCCNC(=N)N)NC(=O)[C@H](CCCNC(=N)N)NC(=O)[C@H](C)NC(=O)[C@H](Cc1ccccc1)NC(=O)[C@H](CC(=O)O)NC(=O)[C@@H](NC(=O)[C@H](CCCCN)NC(=O)[C@H](CC(=O)O)NC(=O)[C@H](CCCNC(=N)N)NC(=O)[C@H](CCCNC(=N)N)NC(=O)[C@H](C)NC(=O)[C@@H](N)CCSC)[C@@H](C)O)C(=O)NCCCCC(NC(=O)C(CCCCNC(=O)CCCCCNC(=O)[C@H](CCCNC(=N)N)NC(=O)[C@H](CCCNC(=N)N)NC(=O)[C@H](CCCNC(=N)N)NC(=O)[C@H](CCCNC(=N)N)NC(=O)[C@H](C)NC(=O)[C@H](Cc1ccccc1)NC(=O)[C@H](CC(=O)O)NC(=O)[C@@H](NC(=O)[C@H](CCCCN)NC(=O)[C@H](CC(=O)O)NC(=O)[C@H](CCCNC(=N)N)NC(=O)[C@H](CCCNC(=N)N)NC(=O)[C@H](C)NC(=O)[C@@H](N)CCSC)[C@@H](C)O)NC(=O)CCCCCNC(=O)[C@H](CCCNC(=N)N)NC(=O)[C@H](CCCNC(=N)N)NC(=O)[C@H](CCCNC(=N)N)NC(=O)[C@H](CCCNC(=N)N)NC(=O)[C@H](C)NC(=O)[C@H](Cc1ccccc1)NC(=O)[C@H](CC(=O)O)NC(=O)[C@@H](NC(=O)[C@H](CCCCN)NC(=O)[C@H](CC(=O)O)NC(=O)[C@H](CCCNC(=N)N)NC(=O)[C@H](CCCNC(=N)N)NC(=O)[C@H](C)NC(=O)[C@@H](N)CCSC)[C@@H](C)O)C(N)=O)[C@@H](C)O (some centres unmarked) |  | C57BL/6 mouse female, colon | dose not given, 6 h | relative to: total | mean tissue distribution | 3.08%
CC[C@H](C)[C@H](NC(=O)[C@H](CCCCN)NC(=O)CNC(=O)[C@H](CC(C)C)NC(=O)[C@H](Cc1ccccc1)NC(=O)[C@H](CCCCN)NC(=O)[C@H](CO)NC(=O)[C@H](Cc1ccccc1)NC(=O)[C@H](Cc1c[nH]c2ccccc12)NC(=O)[C@H](CCC(N)=O)NC(=O)[C@@H](NC(=O)[C@H](Cc1ccccc1)NC(=O)CCCCCNC(=O)CN1CCN(CC(=O)O)CCN(CC(=O)O)CCN(CC(=O)O)CC1)C(C)C)C(=O)N[C@@H](CCC(=O)O)C(=O)N1CCC[C@H]1C(=O)N[C@@H](CC(=O)O)C(=O)N[C@H](C(=O)N[C@@H](CO)C(=O)N[C@@H](CCC(N)=O)C(=O)N[C@H](C(=O)N[C@@H](CCC(N)=O)C(=O)N[C@@H](CC(=O)O)C(=O)N1CCC[C@H]1C(=O)N[C@@H](CC(N)=O)C(=O)N[C@@H](CC(=O)O)C(=O)N[C@@H](CCC(N)=O)C(=O)N[C@@H](Cc1ccc(O)cc1)C(=O)N[C@@H](CCC(=O)O)C(=O)N1CCC[C@H]1C(=O)N[C@@H](Cc1ccccc1)C(=O)O)C(C)C)C(C)C [copper-64 labelled] | dynamic PET | mouse both sexes, CT26 tumour, untreated, tumour | intravenous, 100 µCi/mouse, 750 s |  | SUVmean | 1.06 SUV
C/C(=N\OCCCN1CCCCC1)c1ccc(C(F)(F)F)cc1 |  | rhesus monkey | dose not given, after dosing |  | QT interval | 140 ms and 164 ms
CCCCCCCCCCCCCCCC(=O)N[C@@H](CCC(=O)NCCOCCOCCC(=O)NCCOCCOCCC(=O)NCCCC[C@H](NC(=O)[C@H](CC(=O)O)NC(=O)[C@H](CC(C)C)NC(=O)[C@H](Cc1ccc(O)cc1)NC(=O)[C@H](CCCCN)NC(=O)[C@H](CO)NC(=O)[C@H](Cc1ccc(O)cc1)NC(=O)[C@H](CC(=O)O)NC(=O)[C@H](CO)NC(=O)[C@@H](NC(=O)[C@H](Cc1ccccc1)NC(=O)[C@@H](NC(=O)CNC(=O)[C@H](CCC(N)=O)NC(=O)[C@@H](CO)NC(=O)[C@@H](N)Cc1c[nH]cn1)[C@@H](C)O)[C@@H](C)O)C(=O)N[C@@H](CCCNC(=N)N)C(=O)N[C@@H](CCCNC(=N)N)C(=O)N[C@@H](C)C(=O)N[C@@H](CCC(N)=O)C(=O)N[C@@H](CC(=O)O)C(=O)N[C@@H](Cc1ccccc1)C(=O)N[C@H](C(=O)N[C@@H](CCC(N)=O)C(=O)N[C@@H](Cc1c[nH]c2ccccc12)C(=O)N[C@@H](CC(C)C)C(=O)N[C@@H](CC(C)C)C(=O)N[C@@H](CC(N)=O)C(=O)N[C@H](C(=O)NCC(=O)NCC(=O)N1CCC[C@H]1C(=O)N[C@@H](CO)C(=O)N[C@@H](CO)C(=O)NCC(=O)N[C@@H](C)C(=O)N1CCC[C@H]1C(=O)N1CCC[C@H]1C(=O)N1CCC[C@H]1C(=O)N[C@@H](CO)C(N)=O)[C@@H](C)O)C(C)C)C(=O)O |  | rhesus monkey, male, plasma | subcutaneous, 60 µg/kg, day 1, toxicokinetics, median |  | Tmax | 2 h
CC(C)C[C@H](N)C(=O)N1CCC[C@H]1C(=O)N[C@@H](Cc1ccccc1)C(=O)N[C@@H](Cc1ccccc1)C(=O)N[C@@H](CC(=O)O)C(=O)N[C@@H](CC(=O)O)C(=O)N[C@@H](C)C(=O)N[C@@H](Cc1c[nH]cn1)C(=O)N[C@@H](CCCCN)C(N)=O | RP-HPLC | 50% human serum | 100 µM, 24 h, 37 °C |  | intact peptide remaining | 40%
CC(C)[C@@H]1NC(=O)CNC(=O)[C@H](CC(N)=O)NC(=O)[C@H](CCCNC(=N)N)NC(=O)[C@H](Cc2ccc(O)cc2)NC(=O)[C@H](C(C)C)NC(=O)[C@@H](NC(=O)[C@@H](NC(=O)[C@H](CC(N)=O)NC(=O)[C@H](Cc2c[nH]c3ccccc23)NC(=O)[C@H](C)NC(=O)[C@H](Cc2ccccc2)NC(=O)CNC(=O)[C@H](CCCCN)NC(=O)[C@H](Cc2ccccc2)NC(=O)[C@H](Cc2ccccc2)NC(=O)[C@H](CCCCN)NC(=O)OCC2c3ccccc3-c3ccccc32)C(C)C)CSSC[C@@H](C(=O)N[C@@H](Cc2c[nH]cn2)C(=O)N[C@@H](CCCNC(=N)N)C(=O)N[C@@H](CCCNC(=N)N)C(=O)N[C@@H](C)C(=O)N[C@@H](CC(N)=O)C(N)=O)NC(=O)[C@H](C(C)C)NC(=O)[C@H](CCCNC(=N)N)NC1=O | HPLC | trypsin buffer | 1.00 h, 37 °C, together with: trypsin 1 % w/v |  | peptide remaining | 58.4% and 59.3% and 62.2%
CC(C)C[C@@H](NC(=O)[C@@H](CCCNC(=N)N)NC(=O)[C@@H](Cc1c[nH]cn1)NC(=O)[C@@H](Cc1c[nH]c2ccccc12)NC(=O)[C@@H](Cc1c[nH]cn1)NC(=O)[C@@H](Cc1ccccc1)NC(=O)[C@H](NC(=O)[C@@H](Cc1ccc(O)cc1)NC(=O)CNC(=O)CNC(=O)CCOCCOCCOCCNC(=O)CN1CCN(CC(=O)O)CCN(CC(=O)O)CC1)[C@H](C)O)C(=O)N[C@H](CC(N)=O)C(=O)N1CCC[C@@H]1C(=O)O [gallium-68 labelled] |  | C57BL/6 mice, male | intravenous, 1.85 MBq, 30 min | relative to: tumour over heart | tissue ratio | 1.08 ± 0.17
CC(=O)c1c(C)c2cnc(Nc3ccc(N4CCNCC4)cn3)nc2n(C2CCCC2)c1=O |  | C57BL/6 mice, blood | 25 mg/kg, P25, dosed P10 to P24 |  | blood urea nitrogen | 18.2 ± 5.8 mg/dL
CSCC[C@H](NC(=O)[C@@H](NC(=O)[C@H](CC(C)C)NC(=O)[C@@H](NC(=O)[C@H](Cc1c[nH]cn1)NC(=O)CCCCCNC(=O)[C@H](CCCNC(=N)N)NC(=O)[C@H](CCCNC(=N)N)NC(=O)[C@H](CCCNC(=N)N)NC(=O)[C@H](CCC(N)=O)NC(=O)[C@H](CCCNC(=N)N)NC(=O)[C@H](CCCNC(=N)N)NC(=O)[C@H](CCCCN)NC(=O)[C@H](CCCCN)NC(=O)[C@H](CCCNC(=N)N)NC(=O)CNC(=O)[C@@H](N)Cc1ccc(O)cc1)C(C)C)C(C)C)C(=O)N[C@@H](CS)C(=O)N[C@@H](C)C(=O)N[C@H](C(N)=O)[C@@H](C)O |  | C57BL/6J mice | Alzet osmotic pump, 3 mg/kg, 8 weeks |  | hemoglobin | 11.5 g/dL and 12.8 g/dL and 8.4 g/dL
CC(CCC(=O)NCC(=O)O)C1CCC2C3C(O)CC4CC(OC5OC(C(=O)O)C(O)C(O)C5O)CCC4(C)C3CCC12C (centres unmarked) |  | women, T/C genotype, plasma | dose not given, geometric mean |  | glucuronide to parent ratio | 0.089

A few entries again:
SMILES | test | test system | setting | how to read | endpoint | result
CCCC[C@H]1C(=O)N(C)[C@@H](CCCC)C(=O)N[C@@H](CCCNC(=O)CN2CCN(CC(=O)O)CCN(CC(=O)O)CCN(CC(=O)O)CC2)C(=O)N[C@H](C(=O)NCC(N)=O)CSCC(=O)N[C@@H](Cc2ccc(O)cc2)C(=O)N(C)[C@@H](C)C(=O)N[C@@H](CC(N)=O)C(=O)N2CCC[C@H]2C(=O)N[C@@H](Cc2c[nH]cn2)C(=O)N[C@@H](CC(C)C)C(=O)N(C)CC(=O)N[C@@H](Cc2c[nH]c3ccccc23)C(=O)N[C@@H](CO)C(=O)N[C@@H](Cc2c[nH]c3ccccc23)C(=O)N1C [gallium-68 labelled] |  | NOD/SCID mice, CHO-hPD-L1 xenograft, stomach | 60 min, PBS pretreatment |  | tissue uptake | 2.33 ± 0.33 %ID/g
CN1Cc2cc(Cl)ccc2-n2c(nnc2C2CCN(c3cccc([18F])n3)CC2)C1 |  | C57BL/6 mouse male, spleen | intravenous, dose not given, 5 min, together with: blocking agent 10 mg/kg |  | tissue uptake | 4.81 ± 1.2 %ID/g
CC(=O)NCCCC[C@@H]1NC(=O)[C@H](Cc2c[nH]c3c(C)cccc23)NC(=O)[C@H]([C@@H](C)O)NC(=O)[C@H](CC(N)=O)NC(=O)[C@@H](NC(C)=O)C(C)(C)SSC(C)(C)[C@@H](C(=O)N[C@@H](Cc2ccc(OCCN)cc2)C(=O)N[C@@H](Cc2ccc3ccccc3c2)C(=O)NC2(C(=O)N[C@@H](CCC(=O)O)C(=O)N[C@@H](CC(N)=O)C(=O)N[C@@H](Cc3cccnc3)C(=O)N(C)CC(N)=O)CCOCC2)NC1=O | metabolic profiling | Sprague Dawley rat, feces | oral, 300 mg/kg, 0 to 24 h |  | share of drug-related material | 96.3%
